Assay results from different studies.
Several values in a cell are separate wells, animals, samples, runs or records. Numbers after ± are the reported error. In brackets after ≈: the same amount, converted by molar mass.

| Structure (SMILES) | organism | test | test system | setting | scale | quantity | value |
| --- | --- | --- | --- | --- | --- | --- | --- |
| C[N+]1=C2C(c3ccc([N+](=O)[O-])cc3)=[N+]([O-])c3ccccc3N2CCC1 | Clostridium perfringens | microbial growth | – | – | – | MIC50 | 0.25 µg/mL |
| O=[N+]([O-])c1ccc(-n2nc(-c3ccccc3)cc2-c2ccc(F)cc2)c([N+](=O)[O-])c1 | Japanese encephalitis virus | plaque | Neuro2a, SA14-14-2 | 15 µM, 72 h, post-treatment | – | viral particle reduction | ≤ 70% |
| CN1CCN(C(=O)N[C@@H](Cc2ccccc2)C(=O)N[C@H](/C=C/S(=O)(=O)c2ccccc2)CCc2ccccc2)CC1 | Severe acute respiratory syndrome coronavirus | viral replication | Vero 76, Urbani | – | – | IC50 | 520 ± 170 nM |
| O=S(=O)(Nc1ccccc1)c1ccc(NC(=S)Nc2ccccc2)cc1 | Escherichia coli | refers to: ler, stx2a | EHEC O157:H7 | concentration not given | – | mRNA level | no effect |
| Nc1nc(Nc2ccc(Cl)cc2)nn1S(=O)(=O)c1ccc2ccccc2c1 | Eastern equine encephalitis virus | viral replication | Huh-7 | – | – | EC50 | > 6.2 µM |
| Cc1ccc(NS(=O)(=O)c2c(C(=O)N3CCCCCC3)c(C)n(C)c2C)c(Cl)c1 | Vaccinia virus | viral infection | HaCaT | 33.33 µM, 36 h | reference: untreated | infection | 0.826% and 0.573% and 0.484% |
| CCCCCc1ccc(Oc2ccccc2)c(O)c1 | Francisella tularensis | bacterial growth | LVS | – | – | MIC90 | 1.2 ± 0.2 ng/mL (≈ 0.00468 µM) |
| Cc1ccc(N2CC(N3CCC(C)(O)CC3)C2)cc1C(=O)NC1(c2ccc3c4c(cccc24)CC3)CC1 | SARS-CoV-2 | viral replication | Vero C1008, XBB.1 | 0.1543 µM | – | inhibition | 40% |
| CC(=O)OCCOCn1cnc(C#N)c1C#N | Mammarenavirus lassaense | viral replication | Vero | 48 h | – | IC90 | 47 µg/mL (≈ 201 µM) |
| CCN(CC)CC#CCOC(=O)[C@]1(C)CCC[C@@]2(C)[C@H]1CC=C1C=C(C(C)C)CC[C@@H]12 | SARS-CoV-2 pseudovirus | pseudovirus infection | BHK-21-hACE2 | 20.0 µM | – | inhibition | 43.3% |
| O=C(O)c1ncn(COCCOCc2ccccc2)c1C(=O)O | Mammarenavirus lassaense | viral replication, inhibitor | Vero | 48 h | – | IC50 | 18 µg/mL |
| COc1ccc(C2=[N+]([O-])c3ccccc3N3CCCN=C23)cc1 | Clostridium perfringens | microbial growth | – | – | – | MIC50 | 16 µg/mL (≈ 52.1 µM) |
| O=C(C=Cc1ccc(O)c(O)c1)OC1CC(O)(C(=O)O)CC(OC(=O)C=Cc2ccc(O)c(O)c2)C1O (stereo not shown) | Severe acute respiratory syndrome coronavirus 2 | cytopathic effect | Vero C1008 | 25 µM | – | inhibition | 0% |
| CC[C@H](C)[C@H](NC(=O)[C@H](CCCCN)NC(=O)[C@H](CCCCN)NC(=O)[C@H](CC(C)C)NC(=O)[C@H](Cc1c[nH]c2ccccc12)NC(=O)CN)C(=O)NCC(=O)N[C@@H](CCCCN)C(=O)N[C@@H](CCCCN)C(=O)N[C@H](C(=O)N[C@@H](CCC(=O)O)C(=O)N[C@@H](CCCNC(=N)N)C(=O)N[C@H](C(=O)NCC(=O)N[C@@H](CCC(N)=O)C(=O)N[C@@H](Cc1c[nH]cn1)C(=O)N[C@H](C(=O)N[C@@H](CCCNC(=N)N)C(=O)N[C@@H](CC(=O)O)C(=O)N[C@@H](C)C(=O)N[C@H](C(=O)N[C@H](C(=O)N[C@@H](CCC(N)=O)C(=O)N[C@H](C(=O)N[C@H](C(=O)NCC(=O)N[C@H](C(=O)N[C@@H](C)C(=O)N[C@@H](CCC(N)=O)C(=O)N[C@@H](CCC(N)=O)C(=O)N[C@@H](C)C(=O)N[C@@H](C)C(=O)N[C@@H](CC(N)=O)C(=O)N[C@H](C(=O)N[C@@H](C)C(=O)N[C@@H](C)C(=O)N[C@H](C(=O)N[C@@H](CC(C)C)C(=O)N[C@@H](CCCCN)C(N)=O)[C@@H](C)O)C(C)C)C(C)C)[C@@H](C)CC)[C@@H](C)O)[C@@H](C)CC)[C@@H](C)O)[C@@H](C)O)C(C)C)[C@@H](C)CC | Pseudomonas aeruginosa | broth microdilution | RKI 93/12, CAMHB with 10% mouse serum | 150 mM NaCl | – | MIC | 512 mg/L |
| N#Cc1ncn(COCCOCc2ccccc2)c1C#N | Mammarenavirus lassaense | viral replication, inhibitor | Vero | 48 h | – | IC50 | 10 µg/mL |
| O=S(=O)(O)c1cccc(-c2c3nc(c(-c4cccc(S(=O)(=O)O)c4F)c4ccc([nH]4)c(-c4cccc(S(=O)(=O)O)c4F)c4nc(c(-c5cccc(S(=O)(=O)O)c5F)c5ccc2[nH]5)C=C4)C=C3)c1F | vaccinia virus | viral replication | CV-1, IHD-J | – | – | EC50 | 0.26 ± 0.1 µg/mL |
| COC(=O)c1ncn(CCOC(C)=O)c1C(=O)OC | Mammarenavirus lassaense | viral replication | Vero | 48 h | – | IC90 | 58 µg/mL (≈ 215 µM) |
| C#CCN(Cc1ccc2nc(N)nc(N)c2c1)c1ccc(C(=O)N[C@@H](CCC(=O)O)C(=O)O)cc1 | Mycobacterium tuberculosis | – | pptH knockout | – | – | MIC | 4.8 µM |
| [O-][N+]1=C(c2ccc(Cl)cc2)C2=NCCCN2c2ccccc21 | Clostridium perfringens | microbial growth | – | – | – | MIC50 | 32 µg/mL (≈ 103 µM) |
| CCC(NC(=O)NNS(=O)(=O)c1ccc(C)cc1)(C(F)(F)F)C(F)(F)F | Vaccinia virus | – | Vero | concentration not given | – | antiviral activity | inactive |
| [O-][N+]1=C(c2ccsc2)C2=NCCCN2c2ccccc21 | Clostridium butyricum | – | – | – | – | MIC | 0.25 mg/L |
| CC(C)CC(C(=O)N1CC2(CC1C#N)C(=O)Nc1ccccc12)N(C)C(=O)c1cc2c(F)cc(F)c(F)c2[nH]1 (stereo not shown) | SARS-CoV-2 | viral replication, infectious virus | Vero E6 | 0.03333 µM | – | inhibition | 98.3% |

For quick reference, copied from above:
| Structure (SMILES) | organism | test | test system | setting | scale | quantity | value |
| --- | --- | --- | --- | --- | --- | --- | --- |
| CC(=O)OCCOCn1cnc(C#N)c1C#N | Mammarenavirus lassaense | viral replication | Vero | 48 h | – | IC90 | 47 µg/mL (≈ 201 µM) |
